Measurements from different studies.
A part holds a random share of what one study measured.
Chain of UniProt Q8NEB9 (whole entry, looked up): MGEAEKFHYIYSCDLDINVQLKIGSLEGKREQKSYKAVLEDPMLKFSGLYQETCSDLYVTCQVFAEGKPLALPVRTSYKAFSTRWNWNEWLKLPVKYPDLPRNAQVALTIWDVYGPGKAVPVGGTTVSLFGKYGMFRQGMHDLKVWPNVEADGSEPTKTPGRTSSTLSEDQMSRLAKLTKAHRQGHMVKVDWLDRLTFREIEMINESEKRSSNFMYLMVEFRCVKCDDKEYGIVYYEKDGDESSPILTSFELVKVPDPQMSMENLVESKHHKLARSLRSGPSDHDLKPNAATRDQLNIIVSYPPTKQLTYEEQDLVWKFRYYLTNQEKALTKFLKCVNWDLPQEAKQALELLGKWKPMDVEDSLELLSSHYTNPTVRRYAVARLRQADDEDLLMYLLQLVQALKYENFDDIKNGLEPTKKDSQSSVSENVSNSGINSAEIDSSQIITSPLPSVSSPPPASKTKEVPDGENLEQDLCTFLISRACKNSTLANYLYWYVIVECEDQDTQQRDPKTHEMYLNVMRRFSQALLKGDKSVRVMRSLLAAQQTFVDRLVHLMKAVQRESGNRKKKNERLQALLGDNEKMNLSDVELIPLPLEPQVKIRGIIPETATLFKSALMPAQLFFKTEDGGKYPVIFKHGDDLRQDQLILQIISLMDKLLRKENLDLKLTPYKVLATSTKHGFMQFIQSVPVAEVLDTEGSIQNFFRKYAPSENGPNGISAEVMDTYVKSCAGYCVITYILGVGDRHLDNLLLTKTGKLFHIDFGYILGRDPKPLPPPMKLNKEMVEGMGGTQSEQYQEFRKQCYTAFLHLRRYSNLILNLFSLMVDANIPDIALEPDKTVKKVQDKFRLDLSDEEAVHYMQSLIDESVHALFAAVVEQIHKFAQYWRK
Chain of UniProt Q14012 (whole entry, looked up): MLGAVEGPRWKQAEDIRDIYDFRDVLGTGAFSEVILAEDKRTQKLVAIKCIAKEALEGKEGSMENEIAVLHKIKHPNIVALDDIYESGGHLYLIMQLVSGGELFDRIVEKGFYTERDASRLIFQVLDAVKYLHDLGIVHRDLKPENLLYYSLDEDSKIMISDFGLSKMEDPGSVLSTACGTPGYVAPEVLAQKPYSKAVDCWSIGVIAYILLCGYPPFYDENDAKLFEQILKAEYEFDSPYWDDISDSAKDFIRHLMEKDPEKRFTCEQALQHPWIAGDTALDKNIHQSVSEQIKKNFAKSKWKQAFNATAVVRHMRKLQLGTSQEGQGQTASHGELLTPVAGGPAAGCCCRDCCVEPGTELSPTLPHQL
Chain of UniProt P53667 (whole entry, looked up): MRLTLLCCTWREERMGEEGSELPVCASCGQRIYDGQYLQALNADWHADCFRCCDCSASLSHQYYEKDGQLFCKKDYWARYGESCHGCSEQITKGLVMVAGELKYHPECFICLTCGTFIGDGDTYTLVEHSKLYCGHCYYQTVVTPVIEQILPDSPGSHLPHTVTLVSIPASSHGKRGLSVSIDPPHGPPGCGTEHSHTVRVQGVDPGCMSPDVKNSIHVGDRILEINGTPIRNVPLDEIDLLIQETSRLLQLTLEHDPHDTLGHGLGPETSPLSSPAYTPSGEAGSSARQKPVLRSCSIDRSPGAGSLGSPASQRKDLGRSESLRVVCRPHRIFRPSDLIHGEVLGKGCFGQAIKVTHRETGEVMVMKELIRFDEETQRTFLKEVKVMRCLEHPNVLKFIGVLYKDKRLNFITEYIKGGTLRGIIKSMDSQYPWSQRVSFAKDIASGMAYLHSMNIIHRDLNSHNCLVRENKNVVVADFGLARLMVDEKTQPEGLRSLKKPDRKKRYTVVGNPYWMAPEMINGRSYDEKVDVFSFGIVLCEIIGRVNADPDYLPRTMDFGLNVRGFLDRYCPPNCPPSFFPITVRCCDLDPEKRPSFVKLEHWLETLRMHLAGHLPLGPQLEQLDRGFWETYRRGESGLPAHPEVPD

Block 1
Target: DNA polymerase theta, helicase domain (POLQ, Homo sapiens, UniProt O75417)
Chain of UniProt O75417 (whole entry, looked up): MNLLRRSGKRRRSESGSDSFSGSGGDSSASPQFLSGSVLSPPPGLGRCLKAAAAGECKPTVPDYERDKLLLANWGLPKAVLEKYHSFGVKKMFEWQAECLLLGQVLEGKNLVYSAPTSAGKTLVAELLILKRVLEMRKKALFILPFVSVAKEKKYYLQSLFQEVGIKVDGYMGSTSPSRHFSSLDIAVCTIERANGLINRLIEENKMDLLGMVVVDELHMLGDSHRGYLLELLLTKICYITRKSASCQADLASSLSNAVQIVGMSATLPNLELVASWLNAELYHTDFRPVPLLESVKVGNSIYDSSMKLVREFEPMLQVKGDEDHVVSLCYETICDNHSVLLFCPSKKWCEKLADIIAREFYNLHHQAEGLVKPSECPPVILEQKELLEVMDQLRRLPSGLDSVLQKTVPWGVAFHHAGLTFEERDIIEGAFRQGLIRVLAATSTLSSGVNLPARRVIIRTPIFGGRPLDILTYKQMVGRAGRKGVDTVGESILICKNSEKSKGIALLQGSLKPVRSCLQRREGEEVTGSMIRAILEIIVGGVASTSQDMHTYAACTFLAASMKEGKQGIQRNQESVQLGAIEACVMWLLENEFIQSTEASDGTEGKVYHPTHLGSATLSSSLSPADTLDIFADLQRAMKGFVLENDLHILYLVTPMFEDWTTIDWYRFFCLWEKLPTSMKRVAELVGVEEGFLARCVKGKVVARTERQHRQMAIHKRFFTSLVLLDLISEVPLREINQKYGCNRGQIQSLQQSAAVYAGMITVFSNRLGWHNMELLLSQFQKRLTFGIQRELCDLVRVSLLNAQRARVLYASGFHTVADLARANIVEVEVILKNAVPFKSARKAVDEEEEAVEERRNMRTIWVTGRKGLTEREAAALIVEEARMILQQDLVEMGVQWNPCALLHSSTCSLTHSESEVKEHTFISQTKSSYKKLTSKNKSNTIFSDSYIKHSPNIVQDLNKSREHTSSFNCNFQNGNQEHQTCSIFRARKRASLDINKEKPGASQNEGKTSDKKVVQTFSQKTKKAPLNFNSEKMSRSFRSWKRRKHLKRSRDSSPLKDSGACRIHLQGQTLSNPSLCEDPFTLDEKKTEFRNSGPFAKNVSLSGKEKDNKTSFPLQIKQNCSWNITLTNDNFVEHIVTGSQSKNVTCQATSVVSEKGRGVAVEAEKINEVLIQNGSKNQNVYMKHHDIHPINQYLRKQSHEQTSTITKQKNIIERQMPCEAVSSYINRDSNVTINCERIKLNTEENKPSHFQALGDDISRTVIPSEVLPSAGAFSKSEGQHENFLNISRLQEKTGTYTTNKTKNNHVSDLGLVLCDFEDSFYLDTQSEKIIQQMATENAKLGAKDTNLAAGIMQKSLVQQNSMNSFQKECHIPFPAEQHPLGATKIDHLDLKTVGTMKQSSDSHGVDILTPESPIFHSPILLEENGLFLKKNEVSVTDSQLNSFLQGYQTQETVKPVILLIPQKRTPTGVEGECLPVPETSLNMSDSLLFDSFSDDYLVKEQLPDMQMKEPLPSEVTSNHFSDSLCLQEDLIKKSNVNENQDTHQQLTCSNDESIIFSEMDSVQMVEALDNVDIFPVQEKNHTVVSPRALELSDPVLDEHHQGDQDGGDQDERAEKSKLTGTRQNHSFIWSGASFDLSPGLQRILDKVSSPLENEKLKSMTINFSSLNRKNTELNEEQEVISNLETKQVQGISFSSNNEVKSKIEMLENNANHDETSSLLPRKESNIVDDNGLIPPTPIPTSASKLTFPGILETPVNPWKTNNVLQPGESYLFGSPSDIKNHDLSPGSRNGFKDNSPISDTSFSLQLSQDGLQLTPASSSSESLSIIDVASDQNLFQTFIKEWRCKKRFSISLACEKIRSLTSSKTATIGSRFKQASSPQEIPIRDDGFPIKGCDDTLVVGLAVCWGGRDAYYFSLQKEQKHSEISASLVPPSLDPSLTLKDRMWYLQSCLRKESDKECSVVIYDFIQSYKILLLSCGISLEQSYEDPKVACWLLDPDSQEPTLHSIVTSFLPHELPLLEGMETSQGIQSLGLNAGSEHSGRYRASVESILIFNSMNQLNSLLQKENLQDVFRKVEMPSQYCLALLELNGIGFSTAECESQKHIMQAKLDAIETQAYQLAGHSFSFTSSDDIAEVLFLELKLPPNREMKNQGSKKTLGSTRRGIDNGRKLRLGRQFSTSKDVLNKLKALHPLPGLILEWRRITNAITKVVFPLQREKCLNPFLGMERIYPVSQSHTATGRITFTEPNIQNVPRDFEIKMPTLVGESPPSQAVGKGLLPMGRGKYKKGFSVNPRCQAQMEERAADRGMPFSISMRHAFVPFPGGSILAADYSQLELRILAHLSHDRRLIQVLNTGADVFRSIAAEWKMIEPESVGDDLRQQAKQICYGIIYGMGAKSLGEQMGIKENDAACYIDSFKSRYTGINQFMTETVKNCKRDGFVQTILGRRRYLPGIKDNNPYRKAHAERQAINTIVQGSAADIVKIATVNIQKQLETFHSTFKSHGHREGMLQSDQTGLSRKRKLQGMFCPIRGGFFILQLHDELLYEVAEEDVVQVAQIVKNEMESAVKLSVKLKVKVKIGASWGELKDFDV
Observed: ATPase activity
Tested at: concentration not given
Notes: with minus without ssDNA
| SMILES | activity difference [%] |
| --- | --- |
| CCc1ccc(/C=C2/SC(=S)NC2=O)cc1 | 1.61 |
| COc1ccc2c(c1)c(CC(=O)O)c(C)n2Cc1ccc(Cl)cc1 | 5.2 |
| O=C(Nc1ccccc1C(=O)O)c1cccc(S(=O)(=O)N2CCCC2)c1 | 1.74 |
| CCCCCCCCCCCCc1ccc(S(=O)(=O)Nc2nncs2)cc1 | 10.2 |
| COc1ccc(C(=O)Nc2noc3ccccc23)cc1 | 0.697 |

Block 2
Target: Serine/threonine-protein kinase Sgk1 (SGK1, Homo sapiens, UniProt O00141)
Observed: enzyme activity
Action: inhibitor
Tested at: 0.5 µM
Reference: control
Target sequence (O00141 1-431): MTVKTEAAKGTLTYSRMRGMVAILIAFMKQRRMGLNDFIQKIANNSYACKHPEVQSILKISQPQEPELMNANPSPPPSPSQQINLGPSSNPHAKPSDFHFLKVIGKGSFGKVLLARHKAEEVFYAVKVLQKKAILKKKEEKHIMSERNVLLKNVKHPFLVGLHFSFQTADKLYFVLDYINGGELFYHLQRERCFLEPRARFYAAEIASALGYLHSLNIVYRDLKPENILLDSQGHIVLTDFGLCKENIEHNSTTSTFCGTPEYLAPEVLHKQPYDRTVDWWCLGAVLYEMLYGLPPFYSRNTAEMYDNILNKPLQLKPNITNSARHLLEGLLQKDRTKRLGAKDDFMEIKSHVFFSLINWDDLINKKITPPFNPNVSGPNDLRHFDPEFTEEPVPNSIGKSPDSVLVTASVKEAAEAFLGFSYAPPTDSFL
| SMILES | remaining activity [%] |
| --- | --- |
| COc1cc2ncnc(Nc3ccc(OCc4ccccc4)cc3)c2cc1OC | 103 |
| Cn1cc(/C=C2\C(=O)Nc3ccc(S(N)(=O)=O)cc32)c2ccccc21 | 71.8 |
| COc1cc2ncc(-c3ccccc3)nc2cc1OC | 88.5 |
| COc1ccc(Cl)cc1NC(=O)Nc1cc(C)nc2ccccc12 | 94.7 |
| O=C1NC(=O)/C(=C/c2ccc3nccnc3c2)S1 | 95 |
| CC(C)[C@H](CO)Nc1nc(Nc2cccc(Cl)c2)c2ncn(C(C)C)c2n1 | 99.1 |
| CCOc1cc2ncnc(Nc3cccc(Br)c3)c2cc1OCC | 120 |
| CS(=O)(=O)CCNCc1ccc(-c2ccc3ncnc(Nc4ccc(OCc5cccc(F)c5)c(Cl)c4)c3c2)o1 | 128 |
| CCC(=O)Nc1ccc2ncnc(Nc3cccc(Br)c3)c2c1 | 84.6 |
| COc1cc2ncnc(N3CCN(C(=O)Nc4ccc(Oc5ccccc5)cc4)CC3)c2cc1OC | 99.8 |
| O=C(Nc1ccc(Cl)cc1)c1ccccc1NCc1ccncc1 | 96 |

Block 3
SMILES: O=c1nc(-c2ccccn2)sc2ccccc12
Tested at: 1 µM
| target | test | remaining binding |
| --- | --- | --- |
| EPHB2 (Homo sapiens, UniProt P29323) | cell-free assay, competition with immobilised ligand | 100% |
| AKT2 (Homo sapiens, UniProt P31751) | binding, competition with immobilised ligand | 100% |
| PIK3C3 (Homo sapiens, UniProt Q8NEB9) | cell-free assay, competition with immobilised ligand | 82% |
| EGFR (Homo sapiens, UniProt P00533, A750P/del747-749) | cell-free assay, competition with immobilised ligand | 70% |
| Ribosomal protein S6 kinase alpha-3, C-terminal kinase domain (RPS6KA3, Homo sapiens, UniProt P51812) | binding, competition with immobilised ligand | 88% |
| PAK1 (Homo sapiens, UniProt Q13153) | cell-free assay, competition with immobilised ligand | 94% |
| DCLK2 (Homo sapiens, UniProt Q8N568) | binding, competition with immobilised ligand | 97% |
| PRKG1 (Homo sapiens, UniProt Q13976) | binding, competition with immobilised ligand | 100% |
| FLT3 (Homo sapiens, UniProt P36888, D835V) | binding, competition with immobilised ligand | 100% |
| MAPK3 (Homo sapiens, UniProt P27361) | binding, competition with immobilised ligand | 80% |
| FLT3 (Homo sapiens, UniProt P36888, D835H) | binding, competition with immobilised ligand | 74% |
| EGFR (Homo sapiens, UniProt P00533, del747-752/P753S) | cell-free assay, competition with immobilised ligand | 100% |
| NEK10 (Homo sapiens, UniProt Q6ZWH5) | binding, competition with immobilised ligand | 100% |
| STK24 (Homo sapiens, UniProt Q9Y6E0) | binding, competition with immobilised ligand | 100% |
| Myosin-IIIb (MYO3B, Homo sapiens, UniProt Q8WXR4) | binding, competition with immobilised ligand | 79% |
| CAMK1 (Homo sapiens, UniProt Q14012) | cell-free assay, competition with immobilised ligand | 92% |
| TAOK3 (Homo sapiens, UniProt Q9H2K8) | binding, competition with immobilised ligand | 73% |
| LIM domain kinase 1 (LIMK1, Homo sapiens, UniProt P53667) | binding, competition with immobilised ligand | 84% |
| ALK (Homo sapiens, UniProt Q9UM73, C1156Y) | cell-free assay, competition with immobilised ligand | 100% |
| CAMK2B (Homo sapiens, UniProt Q13554) | cell-free assay, competition with immobilised ligand | 100% |
| SGK2 (Homo sapiens, UniProt Q9HBY8) | binding, competition with immobilised ligand | 85% |
| BMP2K (Homo sapiens, UniProt Q9NSY1) | binding, competition with immobilised ligand | 86% |
| SIK1 (Homo sapiens, UniProt P57059) | competition binding | 95% |
| MAPK1 (Homo sapiens, UniProt P28482) | binding, competition with immobilised ligand | 91% |
| FLT3 (Homo sapiens, UniProt P36888, K663Q) | binding, competition with immobilised ligand | 100% |

Block 4
Target: Beta-1 adrenergic receptor (ADRB1, Homo sapiens, UniProt P08588)
Chain of UniProt P08588 (whole entry, looked up): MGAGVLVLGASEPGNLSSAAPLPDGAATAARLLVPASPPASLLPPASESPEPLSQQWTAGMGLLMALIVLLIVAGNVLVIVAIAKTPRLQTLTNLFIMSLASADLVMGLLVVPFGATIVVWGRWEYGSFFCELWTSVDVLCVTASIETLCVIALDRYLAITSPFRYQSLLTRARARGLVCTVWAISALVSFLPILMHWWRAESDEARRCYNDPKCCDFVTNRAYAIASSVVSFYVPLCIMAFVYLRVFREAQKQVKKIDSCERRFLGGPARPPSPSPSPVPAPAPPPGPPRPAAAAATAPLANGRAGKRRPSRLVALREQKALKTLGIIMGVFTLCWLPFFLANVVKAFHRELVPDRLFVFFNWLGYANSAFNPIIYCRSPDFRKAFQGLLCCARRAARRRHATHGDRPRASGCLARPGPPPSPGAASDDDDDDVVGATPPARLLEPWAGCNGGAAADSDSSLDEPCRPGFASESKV
Action: antagonist
| SMILES | IC50 [µM] |
| --- | --- |
| Clc1nc(NCc2cccs2)c2[nH]cnc2n1 | ≥ 100 |
| Cn1cc(-c2cc(=O)c3ccnc(NC4CCOCC4)c3o2)cn1 | ≥ 100 |
| Cc1cccc(-c2n[nH]cc2-c2ccc(F)c(-c3cnn(CCO)c3)c2)n1 | ≥ 100 |
| COc1ccccc1-c1cc(-c2ccsc2)c2onc(C)c2n1 | ≥ 100 |
| CCOc1cccc(C(=O)N2CCN(c3ccccc3OC)CCC2C)c1 (stereo not drawn) | ≥ 100 |
| COc1cc(O)c2c3c(c(O)cc(C)c13)C(=O)OC2 | ≥ 100 |
| O=c1cc(N2CCOCC2)oc2c(NCc3ccc(F)cc3)nccc12 | ≥ 100 |
| CN(Cc1cnn(C)c1)Cc1ccccc1OCC(O)CN1CCCCC1 (stereo not drawn) | ≥ 100 |
| COc1ccccc1N1CCC(N2C(=O)[C@H]3CCCN3C2=O)C1 (stereo partly drawn) | ≥ 100 |
| Cc1ccccc1-c1n[nH]c2ncc(-c3cccc(O)c3)nc12 | ≥ 100 |
| OC1(c2cccc(C(F)(F)F)c2)CCN(Cc2nc(-c3cccs3)no2)CC1 | ≥ 100 |
| CN1CCN(CC(O)COc2ccc(C34CC5CC(CC(C5)C3)C4)cc2)CC1 (stereo not drawn) | ≥ 100 |
| COc1ccc(CN(C)Cc2nc(C)no2)c(OCC(O)CN2CCCC2)c1 (stereo not drawn) | ≥ 100 |
